Assay results of several laboratories.
Each line is one published result; not all experiments were run side by side. ± gives the spread as reported.
PAK3: Serine/threonine-protein kinase PAK 3 (PAK3, Homo sapiens, UniProt O75914)
Sequence of UniProt O75914 (whole entry, looked up): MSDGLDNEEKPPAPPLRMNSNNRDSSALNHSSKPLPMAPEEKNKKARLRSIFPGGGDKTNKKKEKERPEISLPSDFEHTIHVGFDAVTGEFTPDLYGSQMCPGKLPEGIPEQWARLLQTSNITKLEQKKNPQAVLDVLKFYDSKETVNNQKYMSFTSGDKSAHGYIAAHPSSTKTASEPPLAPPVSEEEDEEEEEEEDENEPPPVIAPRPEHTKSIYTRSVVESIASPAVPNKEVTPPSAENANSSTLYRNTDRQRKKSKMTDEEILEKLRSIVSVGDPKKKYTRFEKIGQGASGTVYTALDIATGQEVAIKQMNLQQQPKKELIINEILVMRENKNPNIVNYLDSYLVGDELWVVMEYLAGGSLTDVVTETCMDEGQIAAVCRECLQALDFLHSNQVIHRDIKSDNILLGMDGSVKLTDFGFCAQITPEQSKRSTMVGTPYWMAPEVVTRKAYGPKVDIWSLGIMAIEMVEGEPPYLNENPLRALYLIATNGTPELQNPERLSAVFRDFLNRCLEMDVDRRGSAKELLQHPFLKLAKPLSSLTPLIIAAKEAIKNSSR
Ubiquitin carboxyl-terminal hydrolase 39 ZnF-UBD domain: Ubiquitin carboxyl-terminal hydrolase 39, ZnF-UBD domain (Homo sapiens, UniProt Q53GS9)
Sequence of UniProt Q53GS9 (whole entry, looked up): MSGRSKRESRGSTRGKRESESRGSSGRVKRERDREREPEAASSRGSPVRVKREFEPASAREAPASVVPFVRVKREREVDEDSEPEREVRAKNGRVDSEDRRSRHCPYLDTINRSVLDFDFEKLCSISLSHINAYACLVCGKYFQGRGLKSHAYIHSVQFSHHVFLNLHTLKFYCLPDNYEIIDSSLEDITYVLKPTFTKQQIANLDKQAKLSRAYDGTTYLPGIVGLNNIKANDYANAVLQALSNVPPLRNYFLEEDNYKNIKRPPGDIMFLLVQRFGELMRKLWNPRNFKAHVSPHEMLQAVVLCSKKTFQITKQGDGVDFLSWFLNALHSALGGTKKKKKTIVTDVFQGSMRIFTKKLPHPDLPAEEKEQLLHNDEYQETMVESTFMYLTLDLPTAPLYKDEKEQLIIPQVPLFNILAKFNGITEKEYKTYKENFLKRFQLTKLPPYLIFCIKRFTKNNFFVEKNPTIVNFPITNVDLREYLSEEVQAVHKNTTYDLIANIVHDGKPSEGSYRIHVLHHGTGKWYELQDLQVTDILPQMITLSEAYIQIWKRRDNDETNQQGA
Sequence of UniProt P43250 (whole entry, looked up): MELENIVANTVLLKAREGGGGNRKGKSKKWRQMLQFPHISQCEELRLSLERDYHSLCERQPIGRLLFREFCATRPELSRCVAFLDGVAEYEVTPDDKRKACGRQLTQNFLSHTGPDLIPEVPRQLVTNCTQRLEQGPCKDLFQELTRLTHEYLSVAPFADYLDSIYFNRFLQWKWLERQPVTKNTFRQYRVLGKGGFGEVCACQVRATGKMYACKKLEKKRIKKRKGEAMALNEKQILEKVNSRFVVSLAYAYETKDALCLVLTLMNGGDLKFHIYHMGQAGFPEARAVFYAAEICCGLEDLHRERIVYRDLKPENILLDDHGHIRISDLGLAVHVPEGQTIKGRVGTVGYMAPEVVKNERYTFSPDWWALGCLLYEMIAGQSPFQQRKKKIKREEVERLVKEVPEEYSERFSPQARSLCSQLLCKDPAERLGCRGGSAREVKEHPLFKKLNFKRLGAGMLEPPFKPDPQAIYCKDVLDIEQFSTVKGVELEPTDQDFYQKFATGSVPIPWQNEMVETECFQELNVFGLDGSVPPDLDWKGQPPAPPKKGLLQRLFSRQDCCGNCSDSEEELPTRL
Sequence of UniProt P42337 (whole entry, unmodified, looked up): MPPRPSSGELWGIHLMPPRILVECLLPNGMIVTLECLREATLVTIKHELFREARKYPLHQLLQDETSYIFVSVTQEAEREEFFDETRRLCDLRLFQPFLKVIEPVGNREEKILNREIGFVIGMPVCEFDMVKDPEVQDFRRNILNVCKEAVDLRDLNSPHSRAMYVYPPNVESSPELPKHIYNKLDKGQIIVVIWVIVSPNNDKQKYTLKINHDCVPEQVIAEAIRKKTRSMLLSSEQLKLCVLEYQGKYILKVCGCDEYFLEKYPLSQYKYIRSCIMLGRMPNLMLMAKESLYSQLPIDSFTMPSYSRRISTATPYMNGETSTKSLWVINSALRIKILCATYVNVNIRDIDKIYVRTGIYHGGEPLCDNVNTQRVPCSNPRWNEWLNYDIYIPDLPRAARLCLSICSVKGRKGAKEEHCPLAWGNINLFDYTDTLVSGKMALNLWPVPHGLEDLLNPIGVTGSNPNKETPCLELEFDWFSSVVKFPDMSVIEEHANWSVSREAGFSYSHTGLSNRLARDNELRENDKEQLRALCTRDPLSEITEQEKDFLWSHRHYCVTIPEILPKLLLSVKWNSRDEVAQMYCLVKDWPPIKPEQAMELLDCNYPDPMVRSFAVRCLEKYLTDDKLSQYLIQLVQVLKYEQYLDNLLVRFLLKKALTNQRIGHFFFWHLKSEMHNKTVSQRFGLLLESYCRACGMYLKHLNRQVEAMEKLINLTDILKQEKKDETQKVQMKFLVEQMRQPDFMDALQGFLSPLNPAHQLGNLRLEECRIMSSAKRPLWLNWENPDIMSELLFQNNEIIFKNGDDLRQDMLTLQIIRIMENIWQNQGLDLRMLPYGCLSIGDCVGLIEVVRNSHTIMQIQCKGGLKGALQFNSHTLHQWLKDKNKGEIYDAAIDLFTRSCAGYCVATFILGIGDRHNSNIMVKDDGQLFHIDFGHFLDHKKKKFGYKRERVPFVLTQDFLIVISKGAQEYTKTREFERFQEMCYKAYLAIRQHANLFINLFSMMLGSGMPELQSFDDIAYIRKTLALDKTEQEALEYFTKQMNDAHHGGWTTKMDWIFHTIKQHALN
Sequence of UniProt Q13873 (whole entry, looked up): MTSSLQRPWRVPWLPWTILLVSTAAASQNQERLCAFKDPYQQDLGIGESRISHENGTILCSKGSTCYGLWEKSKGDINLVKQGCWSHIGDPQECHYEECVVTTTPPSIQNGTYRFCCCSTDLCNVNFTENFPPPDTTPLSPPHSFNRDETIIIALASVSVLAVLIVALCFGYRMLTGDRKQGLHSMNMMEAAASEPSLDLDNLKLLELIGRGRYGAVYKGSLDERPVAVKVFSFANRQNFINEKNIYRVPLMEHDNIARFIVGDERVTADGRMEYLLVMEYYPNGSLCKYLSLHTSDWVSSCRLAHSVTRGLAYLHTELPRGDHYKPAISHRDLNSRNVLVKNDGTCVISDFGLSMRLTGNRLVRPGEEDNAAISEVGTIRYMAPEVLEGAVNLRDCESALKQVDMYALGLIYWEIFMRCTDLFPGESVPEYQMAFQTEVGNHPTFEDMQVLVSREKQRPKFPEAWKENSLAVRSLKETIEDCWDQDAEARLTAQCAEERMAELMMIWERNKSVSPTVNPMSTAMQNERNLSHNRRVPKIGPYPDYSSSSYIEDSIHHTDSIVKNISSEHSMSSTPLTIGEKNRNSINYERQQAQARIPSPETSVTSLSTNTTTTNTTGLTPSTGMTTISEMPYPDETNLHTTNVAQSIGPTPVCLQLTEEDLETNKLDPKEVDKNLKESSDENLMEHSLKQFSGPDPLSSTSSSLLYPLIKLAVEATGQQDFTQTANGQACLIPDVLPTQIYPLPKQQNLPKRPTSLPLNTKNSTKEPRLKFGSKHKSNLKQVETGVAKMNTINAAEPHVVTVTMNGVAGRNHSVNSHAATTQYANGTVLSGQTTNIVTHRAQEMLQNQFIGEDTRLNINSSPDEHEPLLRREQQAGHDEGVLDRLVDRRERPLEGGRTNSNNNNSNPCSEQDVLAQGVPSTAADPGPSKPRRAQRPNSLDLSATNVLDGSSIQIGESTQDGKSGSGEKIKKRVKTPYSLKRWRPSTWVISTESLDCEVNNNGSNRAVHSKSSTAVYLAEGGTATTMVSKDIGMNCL
Sequence of UniProt Q9NZJ5 (whole entry, looked up): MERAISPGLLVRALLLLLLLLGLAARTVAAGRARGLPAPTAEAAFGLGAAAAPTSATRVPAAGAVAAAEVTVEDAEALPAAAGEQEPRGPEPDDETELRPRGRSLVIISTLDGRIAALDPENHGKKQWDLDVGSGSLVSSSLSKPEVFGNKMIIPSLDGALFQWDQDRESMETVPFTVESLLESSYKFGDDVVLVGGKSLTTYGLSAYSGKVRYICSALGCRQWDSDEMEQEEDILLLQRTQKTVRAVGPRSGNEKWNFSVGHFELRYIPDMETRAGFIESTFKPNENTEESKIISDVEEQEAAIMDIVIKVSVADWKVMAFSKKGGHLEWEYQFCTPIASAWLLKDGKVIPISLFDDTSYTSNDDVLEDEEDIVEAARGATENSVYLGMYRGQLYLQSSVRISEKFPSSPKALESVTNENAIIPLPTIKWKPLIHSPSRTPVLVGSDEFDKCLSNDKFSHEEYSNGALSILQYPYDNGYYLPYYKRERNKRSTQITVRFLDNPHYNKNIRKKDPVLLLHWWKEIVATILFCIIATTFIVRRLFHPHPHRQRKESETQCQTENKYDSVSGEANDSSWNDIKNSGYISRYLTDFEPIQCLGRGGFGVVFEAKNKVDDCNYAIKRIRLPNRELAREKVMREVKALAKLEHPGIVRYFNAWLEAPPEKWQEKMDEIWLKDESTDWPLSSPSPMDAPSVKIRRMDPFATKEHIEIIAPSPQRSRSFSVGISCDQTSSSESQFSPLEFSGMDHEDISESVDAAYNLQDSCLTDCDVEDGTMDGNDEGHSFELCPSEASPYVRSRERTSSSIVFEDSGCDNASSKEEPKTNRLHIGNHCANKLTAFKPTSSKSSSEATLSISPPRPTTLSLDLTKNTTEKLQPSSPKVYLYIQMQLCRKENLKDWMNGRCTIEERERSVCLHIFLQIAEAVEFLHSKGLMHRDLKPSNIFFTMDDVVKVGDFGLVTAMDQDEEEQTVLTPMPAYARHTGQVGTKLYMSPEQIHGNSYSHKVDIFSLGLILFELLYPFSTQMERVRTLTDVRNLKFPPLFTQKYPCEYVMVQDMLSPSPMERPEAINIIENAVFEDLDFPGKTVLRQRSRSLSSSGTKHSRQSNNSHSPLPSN

Compound	tested on	test	conditions	how to read	endpoint	result
COc1cc(Nc2ncc3c(n2)-c2ccc(Cl)cc2C(c2c(F)cccc2OC)=NC3)ccc1C(=O)O	PLK3	kinase activity	1 µM	–	remaining activity	111%
CNCC(=O)O	Sodium- and chloride-dependent glycine transporter 2 (Homo sapiens, UniProt Q9Y345)	glycine uptake, inhibitor, [3H]glycine uptake	4000 µM, log concentration 4, added: [3H]glycine	relative to: no inhibitor	remaining activity	87.8%
COc1cc(F)ccc1-c1ncnc(Nc2cccc(C[S@](C)(=N)=O)c2)n1	NLK (Homo sapiens, UniProt Q9UBE8)	kinase activity	10 µM, added: 10 µM ATP	–	remaining activity	94%
COc1ccc(F)cc1C(=O)NCc1ccc(-c2nn([C@@H](C)C(F)(F)F)c(N)c2C(N)=O)cc1	GRK6 (Homo sapiens, UniProt P43250)	kinase activity, inhibitor, HotSpot radiometric	100 nM, added: ATP 10 µM	–	remaining activity	30.5 ± 17.1%
CNc1ncc2c(/C=C/C(=O)N3CCC(OC)CC3)nn(Cc3cccc(C(F)(F)F)c3)c2n1	PAK3	kinase activity, inhibitor	1 µM	relative to: untreated control	remaining activity	86%
O=C(O)CNC(=O)c1ccc(C(=O)N2CCC(c3ccc(Cl)cc3)CC2)cn1	Ubiquitin carboxyl-terminal hydrolase 39 ZnF-UBD domain	–	–	–	Kd	> 1 mM
C=CC(=O)N1CCC[C@@H](n2nc(-c3ccc(Oc4ccccc4)cc3)c3c(N)ncnc32)C1	SYK (Homo sapiens, UniProt P43405)	–	1 µM	–	remaining activity	110%
O=C(O)CCC1=Nc2cccc3cccc(c23)N1	Ubiquitin carboxyl-terminal hydrolase 39 ZnF-UBD domain	–	–	–	Kd	> 1 mM
COc1cc(-c2cncc3c2CN(C)Cc2cc(N4CCNCC4)ccc2-3)cc(OC)c1OC	BMPR2 (Homo sapiens, UniProt Q13873)	kinase activity	1 µM, human enzyme, added: ATP 10 µM	relative to: DMSO control	remaining activity	104%
Cc1ccc(NC(=O)c2ccc(C)c(C(F)(F)F)c2)cc1C#Cc1nn(C2CCC(O)CC2)c2ncnc(N)c12 (stereo not drawn)	Phosphatidylinositol 4,5-bisphosphate 3-kinase catalytic subunit alpha isoform, with p85 alpha (Pik3ca, Mus musculus, UniProt P42337, H1047R)	enzyme activity, inhibitor	10 µM, p110a(H1047R)/p85a)(m mouse, added: ATP 10 µM	–	remaining activity	94%
O=C(NC1CCC1)c1ccc2nc(-c3cccc(NS(=O)(=O)NCCN4CCCCC4)c3)cn2c1	PAK3	enzyme activity	10 µM	–	remaining activity	100%
CCCCCCCCCCCCC/C=C/[C@@H](O)[C@@H](N)COP(=O)(O)O	–	binding, equilibrium dialysis LC-MS	5 µM, thermostabilized A2AR-BRIL construct	relative to: no-protein control, direction not given	z-scored log2 fold change	-0.184
O=C(O)c1ccc(Nc2ncc3c(n2)-c2ccc(Cl)cc2C(c2c(F)cccc2F)=NC3)cc1	EphA4(h)	kinase activity	1 µM	–	remaining activity	90%
CC(CCC(=O)O)C(=O)O (stereo not drawn)	–	binding, equilibrium dialysis LC-MS	5 µM, thermostabilized A2AR-BRIL construct	relative to: no-protein control, direction not given	z-scored log2 fold change	-0.826
Cc1cc(Nc2cc(N3CCN(C)CC3)nc(Sc3ccc(NC(=O)C4CC4)cc3)n2)[nH]n1	EIF2AK3 (Homo sapiens, UniProt Q9NZJ5)	kinase activity, KinaseProfiler	0.03 µM, species human	relative to: control	remaining activity	103%

Excerpt of the above:
Compound	tested on	test	conditions	how to read	endpoint	result
COc1cc(-c2cncc3c2CN(C)Cc2cc(N4CCNCC4)ccc2-3)cc(OC)c1OC	BMPR2 (Homo sapiens, UniProt Q13873)	kinase activity	1 µM, human enzyme, added: ATP 10 µM	relative to: DMSO control	remaining activity	104%
Cc1ccc(NC(=O)c2ccc(C)c(C(F)(F)F)c2)cc1C#Cc1nn(C2CCC(O)CC2)c2ncnc(N)c12 (stereo not drawn)	Phosphatidylinositol 4,5-bisphosphate 3-kinase catalytic subunit alpha isoform, with p85 alpha (Pik3ca, Mus musculus, UniProt P42337, H1047R)	enzyme activity, inhibitor	10 µM, p110a(H1047R)/p85a)(m mouse, added: ATP 10 µM	–	remaining activity	94%
